Earlier results as cited in several papers.
Each line is one published result; not all experiments were run side by side. ± gives the spread as reported.
Cell line: MCF7

| SMILES | observed | time | setting | IC50 |
| --- | --- | --- | --- | --- |
| Oc1cccc(-c2cccc(O)n2)n1.[Cl-].[Cl-].[Ru+2].c1cnc2c(c1)c1c(c3cccnc32)OCCO1.c1cnc2c(c1)c1c(c3cccnc32)OCCO1 | cell viability |  | dark | 490 µM |
| COc1ccc(NC(=O)Nc2ccc(-c3ccc(OC)c(OC)c3)nc2C)cc1 |  | 72 h |  | 0.8 µM |
| N#Cc1c(NC(=O)CN2CCSCC2)c(C(=O)c2ccccc2)n2c1CCC2 |  |  |  | 8.6 µM |
| COc1ccc(-c2ccc(NC(=O)Nc3ccc(Cl)c(C(F)(F)F)c3)c(C)n2)cc1 |  | 48 h |  | 0.22 µM |
| C=C(C)[C@H]1CC[C@@]2(C)CC[C@]3(C)C[C@H]4[C@@H](C)C[C@@]5(O)OC(=O)/C(=C/C[C@H]3[C@H]12)[C@@H]45 |  |  |  | 14.5 µM |
| O=C(c1ccc(Br)cc1)[C@H]1[C@H](c2cn(-c3ccccc3)nc2-c2ccccc2)C2CC3CCCCC3N2[C@]12C(=O)Nc1ccc(Cl)cc12 (some centres unmarked) | cell growth |  |  | 0.189 ± 0.01 µM |
| CC1=CC(C)=[N+]2C1=C(CO)c1c(C)cc(C)n1[B-]2(C)C | cell viability |  | white lamp irradiation | 0.15 ± 0.02 µM |
| Cc1ccc(S(=O)(=O)Nc2ccc(-c3ccnc(Nc4ccc(S(=O)(=O)Nc5ncccn5)cc4)c3C#N)cc2)cc1 | cell proliferation |  |  | 18.3 µM |
| COc1ccc(/C=C/C(=O)OCc2cn(-c3ccccc3)nc2-c2ccc(F)cc2)cc1 | cell growth |  |  | 3.87 µM |
| CCCCn1cc(C(=O)O)c(=O)c2cc(F)c(Nc3cccc(Cl)c3)c(N)c21 |  |  |  | < 50 µM |
| NS(=O)(=O)c1ccc(/N=C2/NC(=O)/C(=C3/C(=O)Nc4ccc(Cl)cc43)S2)cc1 | cell growth |  |  | 3.96 ± 0.21 µM |
| Cc1ccc2nc(SCc3cn(-c4cccc(C(=O)O)c4)nn3)n(Cc3ccccc3)c(=O)c2c1 |  |  |  | 4.04 µM |
| CN(C)c1ccc(C2CC(c3c(O)c4ccccc4oc3=O)=NN2c2nc(-c3ccccc3)c(/N=N/c3ccc(Cl)cc3)s2)cc1 (centres unmarked) | cell growth |  |  | 5.41 µM |
| Oc1cccc(-c2cccc(O)n2)n1.[Cl-].[Cl-].[Ru+2].c1cnc2c(c1)ccc1cccnc12.c1cnc2c(c1)ccc1cccnc12 | cell viability |  | dark | 490 µM |
| CCCCSc1nnc(-c2ccc(N)cc2)o1 | cytotoxicity |  |  | 2.45 ± 1.03 µg/mL |
| Cc1ccc(-n2cc(CN3CCN(C(=O)c4nc5ccccc5n4C)CC3)nn2)cc1 | cell growth |  |  | 3.03 µM |
| Cc1cc(C)cc(NC(=O)c2c(NC(=O)Nc3ccc(Cl)cc3)c(C#N)c3n2CCC3)c1 | cell growth |  |  | 1.12 ± 0.1 µM |

Some of these lines once more:
| SMILES | observed | time | setting | IC50 |
| --- | --- | --- | --- | --- |
| Cc1ccc(S(=O)(=O)Nc2ccc(-c3ccnc(Nc4ccc(S(=O)(=O)Nc5ncccn5)cc4)c3C#N)cc2)cc1 | cell proliferation |  |  | 18.3 µM |
